Experimental data gathered from unrelated publications.
Protocols differ between the studies behind these lines.
Technique: steady-state kinetics
B1: LipK (Streptomyces, UniProt D4QF24); chain MTVGAGGKTSADADPLMLVRAIADADRRAAHALNLVPSENRISPLASLPLASDFYNRYFFNTDGDPLFWEFRGGEDIAHIEALGAAALRRMASARYCNVRPISGMSAMILTVAALSPPGSTVVSVDQNSGGHYATPALLGRLGRRSRLLNCKDGEVDESELAEVLAPGDVALVYVDVQNCVRVPDFRRMSDVIREVSPGTRLYVDASHYLGLVLGGLLANPLDCGADAFGGSTHKSFPGPHKGVIFTNAEDVDESLRSAQFDLVSSHHFAETLALSLAALEVEDRMGDYARATNDNARRLAGALADAGFRVYGDSATGYTDTHQVWVELDGVAAAYALSNRLAEGGIRVNLQSSMPGMSGVHLRLGSNEVTFEGAGPQAIEELAGALVTARERALGPRTVHEIRGRFGAPFYTDPEKLKVEAGL
B2: protein (Streptomyces sp. NRRL 30471, UniProt F2WUC8); chain MVRADYRTPEVNDVVRYRYGAAETALLKNRISEFGFTMAEVPGECAPQTEIERLGKALGLGEPYVAALYQRGDTRAHGALYTDVRSRAHNTHPGFGTTEGQTIHVDGLLEPIGTIRTTILFCVRPAVSGGRTVLFNSSAAFETLRHSDPAAAESLRDPGVLRRRSTLPNVDAGHTGPAFAYDNGLLITRYSEGPTVEWNAPPGRSAELERALNFLRAAAEDKRYSIALRLGAGEALIFRNDVISHGREAYRDDPAAPRHLIRTLYLESP
B3: UGT3A2 S435Y (Homo sapiens, UniProt Q3SY77); chain AKILTISTVGGSHYLLMDRVSQILQDHGHNVTMLNHKRGPFMPDFKKEEKSYQVISWLAPEDHQREFKKSFDFFLEETLGGRGKFENLLNVLEYLALQCSHFLNRKDIMDSLKNENFDMVIVETFDYCPFLIAEKLGKPFVAILSTSFGSLEFGLPIPLSYVPVFRSLLTDHMDFWGRVKNFLMFFSFCRRQQHMQSTFDNTIKEHFTEGSRPVLSHLLLKAELWFINSDFAFDFARPLLPNTVYVGGLMEKPIKPVPQDLENFIAKFGDSGFVLVTLGSMVNTCQNPEIFKEMNNAFAHLPQGVIWKCQCSHWPKDVHLAANVKIVDWLPQSDLLAHPSIRLFVTHGGQNSIMEAIQHGVPMVGIPLFGDQPENMVRVEAKKFGVSIQLKKLKAETLALKMKQIMEDKRYKYAAVAASVILRSHPLSPTQRLVGWIDHVLQTGGATHLKPYVFQQPWHEQYLLDVFVFLLGLTLGTLWLCGKLLGMAVWWLRGARKVKET
B4: CstB (Staphylococcus aureus, UniProt G5ELA4); chain MFFKQFYDNHLSQASYLVGCQRTGEAIIIDPVRDLSKYIEVADSEGLTITQATETHIHADFASGIRDVAKRLNANIYVSGEGEDALGYKNMPSKTQFVKHGDIIQVGNVKLEVLHTPGHTPESISFLLTDLGGGSSVPMGLFSGDFIFVGDIGRPDLLEKSVQIKGSTEISAKQMYESVQNIKNLPDYVQIWPGHGAGSPCGKALGAIPISTIGYEKINNWAFNEIDETKFIESLTSNQPAPPHHFAQMKQVNQFGMNLYQSYDVYPSLDNKRVAFDLRSKEAFHGGHTKGTINIPYNKNFINQIGWYLDFEKDIDLIGDKSTVEKAKHTLQLIGFDKVAGYRLPKSGISTQSVHSADMTGKEEHVLDVRNDEEWNNGHLDQAVNIPHGKLLNENIPFNKEDKIYVHCQSGVRSSIAVGILESKGFENVVNIREGYQDFPESLK
B5: enzyme (Rattus norvegicus, UniProt P06757); chain STAGKVIKCKAAVLWEPHKPFTIEDIEVAPPKAHEVRIKMVATGVCRSDDHAVSGSLFTPLPAVLGHEGAGIVESIGEGVTCVKPGDKVIPLFSPQCGKCRICKHPESNLCCQTKNLTQPKGALLDGTSRFSCRGKPIHHFISTSTFSQYTVVDDIAVAKIDAAAPLDKVCLIGCGFSTGYGSAVQVAKVTPGSTCAVFGLGGVGLSVVIGCKTAGAAKIIAVDINKDKFAKAKELGATDCINPQDYTKPIQEVLQEMTDGGVDFSFEVIGRLDTMTSALLSCHSACGVSVIVGVPPSAQSLSVNPMSLLLGRTWKGAIFGGFKSKDAVPKLVADFMAKKFPLEPLITHVLPFEKINEAFDLLRAGKSIRTVLTF
B6: Saccharopine reductase (Saccharomyces cerevisiae, UniProt P38999); chain MGKNVLLLGSGFVAQPVIDTLAANDDINVTVACRTLANAQALAKPSGSKAISLDVTDDSALDKVLADNDVVISLIPYTFHPNVVKSAIRTKTDVVTSSYISPALRELEPEIVKAGITVMNEIGLDPGIDHLYAVKTIDEVHRAGGKLKSFLSYCGGLPAPEDSDNPLGYKFSWSSRGVLLALRNSAKYWKDGKIETVSSEDLMATAKPYFIYPGYAFVCYPNRDSTLFKDLYHIPEAETVIRGTLRYQGFPEFVKALVDMGMLKDDANEIFSKPIAWNEALKQYLGAKSTSKEDLIASIDSKATWKDDEDRERILSGFAWLGLFSDAKITPRGNALDTLCARLEELMQYEDNERDMVVLQHKFGIEWADGTTETRTSTLVDYGKVGGYSSMAATVGYPVAIATKFVLDGTIKGPGLLAPYSPEINDPIMKELKDKYGIYLKEKTVA
B7: FMO3 D132H (Homo sapiens, UniProt P31513); chain GKKVAIIGAGVSGLASIRSCLEEGLEPTCFEKSNDIGGLWKFSDHAEEGRASIYKSVFSNSSKEMMCFPDFPFPDDFPNFMHNSKIQEYIIAFAKEKNLLKYIQFKTFVSSVNKHPDFATTGQWDVTTERHGKKESAVFDAVMVCSGHHVYPNLPKESFPGLNHFKGKCFHSRDYKEPGVFNGKRVLVVGLGNSGCDIATELSRTAEQVMISSRSGSWVMSRVWDNGYPWDMLLVTRFGTFLKNNLPTAISDWLYVKQMNARFKHENYGLMPLNGVLRKEPVFNDELPASILCGIVSVKPNVKEFTETSAIFEDGTIFEGIDCVIFATGYSFAYPFLDESIIKSRNNEIILFKGVFPPLLEKSTIAVIGFVQSLGAAIPTVDLQSRWAAQVIKGTCTLPSMEDMMNDINEKMEKKRKWFGKSETIQTDYIVYMDELSSFIGAKPNIPWLFLTDPKLAMEVYFGPCSPYQFRLVGPGQWPGARNAILTQWDRSLKPMQTRVVGRLQKPCFFFHWLKLFAIPILLIAVFLVLT
B8: dxs (Escherichia coli, UniProt P77488); chain MSFDIAKYPTLALVDSTQELRLLPKESLPKLCDELRRYLLDSVSRSSGHFASGLGTVELTVALHYVYNTPFDQLIWDVGHQAYPHKILTGRRDKIGTIRQKGGLHPFPWRGESEYDVLSVGHSSTSISAGIGIAVAAEKEGKNRRTVCVIGDGAITAGMAFEAMNHAGDIRPDMLVILNDNEMSISENVGALNNHLAQLLSGKLYSSLREGGKKVFSGVPPIKELLKRTEEHIKGMVVPGTLFEELGFNYIGPVDGHDVLGLITTLKNMRDLKGPQFLHIMTKKGRGYEPAEKDPITFHAVPKFDPSSGCLPKSSGGLPSYSKIFGDWLCETAAKDNKLMAITPAMREGSGMVEFSRKFPDRYFDVAIAEQHAVTFAAGLAIGGYKPIVAIYSTFLQRAYDQVLHDVAIQKLPVLFAIDRAGIVGADGQTHQGAFDLSYLRCIPEMVIMTPSDENECRQMLYTGYHYNDGPSAVRYPRGNAVGVELTPLEKLPIGKGIVKRRGEKLAILNFGTLMPEAAKVAESLNATLVDMRFVKPLDEALILEMAASHEALVTVEENAIMGGAGSGVNEVLMAHRKPVPVLNIGLPDFFIPQGTQEEMRAELGLDAAGMEAKIKAWLA
Sequence of UniProt P16050 (whole entry, looked up): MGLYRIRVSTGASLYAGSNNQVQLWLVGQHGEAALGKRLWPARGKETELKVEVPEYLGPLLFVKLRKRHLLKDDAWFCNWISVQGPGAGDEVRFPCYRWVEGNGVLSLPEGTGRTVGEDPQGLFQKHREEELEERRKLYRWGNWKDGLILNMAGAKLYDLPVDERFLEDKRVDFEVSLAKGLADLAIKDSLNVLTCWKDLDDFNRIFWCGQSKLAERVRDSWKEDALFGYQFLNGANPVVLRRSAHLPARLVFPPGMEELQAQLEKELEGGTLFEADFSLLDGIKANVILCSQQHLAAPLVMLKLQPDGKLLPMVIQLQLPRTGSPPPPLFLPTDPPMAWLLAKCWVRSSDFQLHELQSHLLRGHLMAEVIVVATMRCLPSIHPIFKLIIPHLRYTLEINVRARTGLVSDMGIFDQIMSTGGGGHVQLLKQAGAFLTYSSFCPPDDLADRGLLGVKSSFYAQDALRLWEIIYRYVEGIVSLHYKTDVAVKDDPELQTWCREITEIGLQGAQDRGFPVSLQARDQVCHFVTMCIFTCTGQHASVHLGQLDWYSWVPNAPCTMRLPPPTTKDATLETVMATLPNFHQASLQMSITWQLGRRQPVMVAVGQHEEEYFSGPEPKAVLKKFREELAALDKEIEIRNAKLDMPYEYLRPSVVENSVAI
Sequence of UniProt Q9HJT3 (whole entry, looked up): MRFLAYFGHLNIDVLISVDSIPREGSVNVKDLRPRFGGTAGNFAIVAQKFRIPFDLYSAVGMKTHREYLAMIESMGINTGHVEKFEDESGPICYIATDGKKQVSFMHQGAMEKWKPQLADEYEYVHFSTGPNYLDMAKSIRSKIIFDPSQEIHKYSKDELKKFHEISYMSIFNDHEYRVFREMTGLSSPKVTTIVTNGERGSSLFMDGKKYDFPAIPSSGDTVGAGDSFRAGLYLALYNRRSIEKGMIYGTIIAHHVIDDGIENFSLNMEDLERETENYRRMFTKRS

B1 (LipK)  Km (O=C[C@H]1O[C@@H](n2ccc(=O)[nH]c2=O)[C@H](O)[C@@H]1O; with: L-Thr 30 mM): 29200 µM
B2 (protein)  Km (O=c1ccn([C@H]2C[C@H](O)[C@@H](COP(=O)(O)O)O2)c(=O)[nH]1; pH 7.5, 30 °C, with: αKG 2 mM, ascorbic acid 2 mM, FeCl2 0.4 mM): 6.3 µM
dihydrodipicolinate synthase homolog (Oceanobacillus iheyensis, UniProt Q8EMJ7)  Km (O=C(O)C(=O)C[C@@H](O)[C@H](O)C(=O)O; pH 8, with: MgCl2 5 mM): 160 µM
B3 (UGT3A2 S435Y)  Km (O=c1ccn([C@@H]2O[C@H](CO[P@@](=O)(O)O[P@@](=O)(O)O[C@H]3O[C@H](CO)[C@@H](O)[C@H](O)[C@H]3O)[C@@H](O)[C@H]2O)c(=O)[nH]1; pH 7.4, 37 °C, not purified, with: 1-OH-pyrene 16 µM, MgCl2 10 mM, alamethicin): 1280 µM
ALOX15 (Homo sapiens, UniProt P16050)  Km (CCCCC/C=C\C/C=C\C/C=C\C/C=C\CCCC(=O)O; pH 7.5): 8.8 µM
TaNK (Thermoplasma acidophilum, UniProt Q9HJT3)  Km (Nc1nc2c(ncn2[C@@H]2O[C@H](COP(=O)(O)OP(=O)(O)OP(=O)(O)O)[C@@H](O)[C@H]2O)c(=O)[nH]1; pH 8, 22 °C, apparent, with: inosine, Mg2+): 185 µM
B4 (CstB)  Km (O=S(O)(O)=S; pH 6, 25 °C, with: KCN 50 mM): 1700 µM
B5 (enzyme)  Km (CCC(O)CC; pH 7.3, 37 °C): 4800 µM
B6 (Saccharopine reductase)  Km (NC(=O)C1=CN([C@@H]2O[C@H](COP(=O)(O)OP(=O)(O)OC[C@H]3O[C@@H](n4cnc5c(N)ncnc54)[C@H](OP(=O)(O)O)[C@@H]3O)[C@@H](O)[C@H]2O)C=CC1; pH 7, 25 °C, with: AASA, L-glutamate): 11.4 µM
B7 (FMO3 D132H)  Km (CN1CCC[C@H]1c1cccnc1; HEK293 microsomes; 37 °C, not purified, with: NADPH regenerating system): 2100 µM
enzyme (Thermus thermophilus, UniProt Q5SJ64)  Km (Nc1nc2c([nH]c(=O)n2[C@H]2C[C@H](O)[C@@H](COP(=O)(O)OP(=O)(O)OP(=O)(O)O)O2)c(=O)[nH]1; pH 7.5, 37 °C): 0.126 µM
B8 (dxs)  Km (O=C(O)C(=O)CO; pH 6.8, 37 °C): 50 µM

Excerpt of the above:
dihydrodipicolinate synthase homolog (Oceanobacillus iheyensis, UniProt Q8EMJ7)  Km (O=C(O)C(=O)C[C@@H](O)[C@H](O)C(=O)O; pH 8, with: MgCl2 5 mM): 160 µM
